Measured values collected from several papers.
Numbered parts are unrelated; each lists some results of a single study.
UniProt P10721, sequence (whole entry, unmodified, looked up): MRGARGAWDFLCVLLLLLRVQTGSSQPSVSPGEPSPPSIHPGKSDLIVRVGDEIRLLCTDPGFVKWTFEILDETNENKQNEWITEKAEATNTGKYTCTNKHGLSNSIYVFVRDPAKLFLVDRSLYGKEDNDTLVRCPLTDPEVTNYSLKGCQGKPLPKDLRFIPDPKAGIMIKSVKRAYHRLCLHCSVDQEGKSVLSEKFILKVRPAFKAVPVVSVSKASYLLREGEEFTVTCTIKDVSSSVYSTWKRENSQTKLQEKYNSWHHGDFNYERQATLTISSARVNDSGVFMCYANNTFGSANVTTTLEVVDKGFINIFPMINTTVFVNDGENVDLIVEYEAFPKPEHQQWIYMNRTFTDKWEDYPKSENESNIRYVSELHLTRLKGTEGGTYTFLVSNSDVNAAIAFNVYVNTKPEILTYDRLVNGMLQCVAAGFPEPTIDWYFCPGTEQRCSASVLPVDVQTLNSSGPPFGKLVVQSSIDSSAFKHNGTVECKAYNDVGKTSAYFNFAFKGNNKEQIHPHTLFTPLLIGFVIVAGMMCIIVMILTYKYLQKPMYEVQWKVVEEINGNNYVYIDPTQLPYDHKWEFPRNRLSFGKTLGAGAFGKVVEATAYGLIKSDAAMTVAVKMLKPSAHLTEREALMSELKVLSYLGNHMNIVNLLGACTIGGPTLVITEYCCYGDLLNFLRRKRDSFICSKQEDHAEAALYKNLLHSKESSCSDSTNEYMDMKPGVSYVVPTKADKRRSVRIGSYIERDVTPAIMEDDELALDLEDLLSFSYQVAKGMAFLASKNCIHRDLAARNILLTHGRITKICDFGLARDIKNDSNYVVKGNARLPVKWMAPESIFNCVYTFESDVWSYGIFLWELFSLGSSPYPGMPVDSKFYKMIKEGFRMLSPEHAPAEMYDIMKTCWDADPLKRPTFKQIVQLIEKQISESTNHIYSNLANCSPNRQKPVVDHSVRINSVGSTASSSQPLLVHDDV
UniProt P78356, sequence (whole entry, looked up): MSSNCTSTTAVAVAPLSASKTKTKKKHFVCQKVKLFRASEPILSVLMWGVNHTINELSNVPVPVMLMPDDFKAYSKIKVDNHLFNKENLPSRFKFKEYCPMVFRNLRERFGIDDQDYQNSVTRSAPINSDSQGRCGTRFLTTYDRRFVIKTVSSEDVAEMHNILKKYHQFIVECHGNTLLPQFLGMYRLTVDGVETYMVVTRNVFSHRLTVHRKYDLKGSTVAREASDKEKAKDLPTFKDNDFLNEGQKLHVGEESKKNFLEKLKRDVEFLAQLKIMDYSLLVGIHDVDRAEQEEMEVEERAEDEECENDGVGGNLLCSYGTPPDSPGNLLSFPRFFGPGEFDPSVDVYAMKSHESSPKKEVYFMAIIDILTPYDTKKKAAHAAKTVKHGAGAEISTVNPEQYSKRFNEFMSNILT
UniProt P37023, sequence (whole entry, looked up): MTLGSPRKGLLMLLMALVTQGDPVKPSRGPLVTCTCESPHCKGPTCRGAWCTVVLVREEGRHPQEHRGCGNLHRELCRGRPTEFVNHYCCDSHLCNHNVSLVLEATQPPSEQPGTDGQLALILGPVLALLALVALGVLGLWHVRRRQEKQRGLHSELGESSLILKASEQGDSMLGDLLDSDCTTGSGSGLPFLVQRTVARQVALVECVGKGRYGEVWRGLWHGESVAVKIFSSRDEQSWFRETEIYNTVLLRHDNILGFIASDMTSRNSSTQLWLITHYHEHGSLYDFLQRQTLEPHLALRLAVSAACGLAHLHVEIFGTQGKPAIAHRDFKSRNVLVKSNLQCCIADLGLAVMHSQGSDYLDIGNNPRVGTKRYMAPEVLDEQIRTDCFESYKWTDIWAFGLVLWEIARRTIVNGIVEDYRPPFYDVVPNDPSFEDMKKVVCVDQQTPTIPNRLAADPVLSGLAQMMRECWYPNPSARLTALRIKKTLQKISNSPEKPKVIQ
UniProt P49137, sequence (whole entry, looked up): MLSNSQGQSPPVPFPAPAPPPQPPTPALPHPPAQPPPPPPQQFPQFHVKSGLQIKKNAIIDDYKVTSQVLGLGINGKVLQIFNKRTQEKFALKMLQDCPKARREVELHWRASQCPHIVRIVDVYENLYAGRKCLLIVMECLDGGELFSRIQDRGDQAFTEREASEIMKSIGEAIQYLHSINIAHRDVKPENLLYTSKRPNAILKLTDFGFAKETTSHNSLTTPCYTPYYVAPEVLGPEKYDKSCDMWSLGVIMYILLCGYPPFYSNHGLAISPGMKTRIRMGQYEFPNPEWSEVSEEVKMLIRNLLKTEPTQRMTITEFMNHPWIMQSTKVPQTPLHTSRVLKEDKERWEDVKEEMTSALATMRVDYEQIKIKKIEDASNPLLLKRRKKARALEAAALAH
UniProt Q8TF76, sequence (whole entry, looked up): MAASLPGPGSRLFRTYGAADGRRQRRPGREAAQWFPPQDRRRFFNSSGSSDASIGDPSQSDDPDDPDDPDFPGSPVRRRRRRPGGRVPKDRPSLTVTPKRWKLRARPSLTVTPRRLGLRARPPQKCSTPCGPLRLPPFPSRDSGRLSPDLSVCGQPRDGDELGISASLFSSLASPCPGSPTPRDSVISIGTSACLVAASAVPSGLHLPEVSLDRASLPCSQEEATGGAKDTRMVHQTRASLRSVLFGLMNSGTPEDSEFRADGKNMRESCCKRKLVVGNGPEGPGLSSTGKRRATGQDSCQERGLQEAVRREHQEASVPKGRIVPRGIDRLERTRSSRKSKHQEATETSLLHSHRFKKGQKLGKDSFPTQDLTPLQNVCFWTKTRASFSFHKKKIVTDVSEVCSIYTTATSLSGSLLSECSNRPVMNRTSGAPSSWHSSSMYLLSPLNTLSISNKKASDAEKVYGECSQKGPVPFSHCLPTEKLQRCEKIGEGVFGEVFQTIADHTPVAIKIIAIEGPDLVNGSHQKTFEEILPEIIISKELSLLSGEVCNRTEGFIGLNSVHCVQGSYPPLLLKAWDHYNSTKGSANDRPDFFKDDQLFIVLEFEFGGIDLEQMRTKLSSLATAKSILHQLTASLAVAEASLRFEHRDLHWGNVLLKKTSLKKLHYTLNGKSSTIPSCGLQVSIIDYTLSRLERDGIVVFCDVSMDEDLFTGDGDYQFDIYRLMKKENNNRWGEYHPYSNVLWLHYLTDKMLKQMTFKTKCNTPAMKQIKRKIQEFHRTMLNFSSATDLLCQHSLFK
UniProt Q9P1W9, sequence (whole entry, looked up): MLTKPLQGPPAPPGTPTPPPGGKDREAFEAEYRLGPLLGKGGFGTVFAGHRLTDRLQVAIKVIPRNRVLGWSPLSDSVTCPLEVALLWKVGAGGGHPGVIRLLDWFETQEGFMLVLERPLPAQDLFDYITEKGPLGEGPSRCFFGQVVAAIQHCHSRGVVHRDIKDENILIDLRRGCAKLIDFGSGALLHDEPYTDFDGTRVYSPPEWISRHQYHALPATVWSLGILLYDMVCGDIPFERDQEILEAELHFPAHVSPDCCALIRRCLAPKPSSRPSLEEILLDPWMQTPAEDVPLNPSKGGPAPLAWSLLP
UniProt P36897, sequence (whole entry, looked up): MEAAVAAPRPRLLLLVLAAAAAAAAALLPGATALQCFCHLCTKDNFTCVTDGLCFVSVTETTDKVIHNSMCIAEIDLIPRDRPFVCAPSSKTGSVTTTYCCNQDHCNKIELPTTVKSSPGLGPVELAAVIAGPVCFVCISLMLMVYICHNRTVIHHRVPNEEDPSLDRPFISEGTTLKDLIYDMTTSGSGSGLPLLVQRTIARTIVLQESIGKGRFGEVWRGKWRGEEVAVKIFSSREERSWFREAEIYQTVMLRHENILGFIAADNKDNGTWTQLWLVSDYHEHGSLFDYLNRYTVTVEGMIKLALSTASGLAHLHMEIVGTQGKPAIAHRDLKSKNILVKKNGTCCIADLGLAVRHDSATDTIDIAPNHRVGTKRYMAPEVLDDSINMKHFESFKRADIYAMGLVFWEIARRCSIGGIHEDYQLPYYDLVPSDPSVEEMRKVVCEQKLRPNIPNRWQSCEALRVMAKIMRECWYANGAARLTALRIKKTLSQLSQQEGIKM

Set 1
SMILES: Cc1ccc(NC(=O)c2ccnc(C(F)(F)F)c2)cc1-c1cc(OCCO)nc(N2CCOCC2)c1
Effect on: binding
Concentration: 1 µM
Quantity: remaining binding
Peripheral plasma membrane protein CASK (CASK, Homo sapiens, UniProt O14936): 77%
Activin receptor type-1 (ACVR1, Homo sapiens, UniProt Q04771); competition with immobilised ligand: 100%
Serine/threonine-protein kinase Nek1 (NEK1, Homo sapiens, UniProt Q96PY6): 100%
Receptor-type tyrosine-protein kinase FLT3 (FLT3, Homo sapiens, UniProt P36888); competition with immobilised ligand: 97%
Serine/threonine-protein kinase haspin (HASPIN, Homo sapiens, UniProt Q8TF76): 100%
Tyrosine-protein kinase Lyn (LYN, Homo sapiens, UniProt P07948); competition with immobilised ligand: 78%
Activin receptor type-1-like (ACVRL1, Homo sapiens, UniProt P37023); competition with immobilised ligand: 100%
Cyclin-dependent kinase 11B (CDK11B, Homo sapiens, UniProt P21127); competition with immobilised ligand: 45%
Serine/threonine-protein kinase 24 (STK24, Homo sapiens, UniProt Q9Y6E0): 100%
Casein kinase II subunit alpha (CSNK2A1, Homo sapiens, UniProt P68400): 85%
Serine/threonine-protein kinase TBK1 (TBK1, Homo sapiens, UniProt Q9UHD2): 78%
TGF-beta receptor type-1 (TGFBR1, Homo sapiens, UniProt P36897); competition with immobilised ligand: 100%
MAP kinase-activated protein kinase 2 (MAPKAPK2, Homo sapiens, UniProt P49137): 100%
Mast/stem cell growth factor receptor Kit, autoinhibited (KIT, Homo sapiens, UniProt P10721); competition with immobilised ligand: 75%
AP2-associated protein kinase 1 (AAK1, Homo sapiens, UniProt Q2M2I8); competition with immobilised ligand: 78%
Phosphatidylinositol 5-phosphate 4-kinase type-2 gamma (PIP4K2C, Homo sapiens, UniProt Q8TBX8): 100%
LIM domain kinase 2 (LIMK2, Homo sapiens, UniProt P53671); competition with immobilised ligand: 88%
Protein-tyrosine kinase 6 (PTK6, Homo sapiens, UniProt Q13882); competition with immobilised ligand: 99%

Set 2
Target: Dual specificity tyrosine-phosphorylation-regulated kinase 1A (DYRK1A, Homo sapiens, UniProt Q13627)
Effect on: enzyme activity
Mode: inhibitor
Concentration: 0.5 µM
Baseline: control
Quantity: remaining activity
N#C/C(=C(/N)SC1C=CC=CC1)c1cccc(C(O)c2ccncc2)c1 (centres unmarked): 93.8%
O=C1c2ccccc2-c2nc3nnnn3nc21: 95%
Clc1ccc(Nc2nnc(Cc3ccncc3)c3ccccc23)cc1: 102%
O=Nc1c(-c2c(O)[nH]c3ccccc23)[nH]c2ccccc12: 105%
FC(F)(F)c1ccc(/C=C/c2nc(COc3ccc(CCCCn4ccnn4)cc3)co2)cc1: 105%
NC(=O)c1cccc(-c2cc(Nc3ccc(OC(F)(F)F)cc3)ncn2)c1: 101%
CC(C)n1cnc2c(Nc3cccc(Cl)c3)nc(NCCO)nc21: 88.6%
O=C(c1ccccc1)c1ccc(N2CCOCC2)cc1O: 101%
CC(C)(C)c1nc2c3cc[nH]c(=O)c3c3cc(F)ccc3c2[nH]1: 102%
COc1cc2c(N3CCN(C(=O)Nc4ccc(OC(C)C)cc4)CC3)ncnc2cc1OCCCN1CCCCC1: 104%
O=c1c(-c2ccc(F)cc2)c(-c2ccncc2)[nH]n1-c1ccc(Cl)cc1: 89.8%
C[C@@H](N)[C@H]1CC[C@H](C(=O)Nc2ccncc2)CC1: 101%
O=C1NC(=O)/C(=C/c2ccc3c(c2)OC(F)(F)O3)S1: 84.6%
N#CC(c1ccnc(NCCc2cccnc2)n1)c1nc2ccccc2s1 (centres unmarked): 52.7%
COc1cc2c(Nc3ccc(Br)cc3F)ncnc2cc1OCC1CCN(C)CC1: 106%
CCN(CC)CCCCN1c2ccccc2Oc2ccc(Cl)cc21: 104%
Nc1nc(Nc2ccc(S(N)(=O)=O)cc2)nn1C(=S)Nc1c(F)cccc1F: 15.3%
CC(C)N(CCC(=O)c1ccc2ccccc2c1)Cc1ccccc1: 105%
CNc1cc2c(Nc3cccc(Br)c3)ncnc2cn1: 95.6%
O=C(O)/C=C/c1cc(Br)c(Br)c(Br)c1Br: 74.8%
c1cc(-c2cnn3cc(-c4ccc(OCCN5CCCCC5)cc4)cnc23)ccn1: 20.7%
CCCCc1c(-c2ccc(O)cc2)[nH]c2nccnc12: 92.9%
NC(=O)c1ccc(-c2nc(-c3ccc4c(c3)OCCO4)c(-c3ccccn3)[nH]2)cc1: 109%

Set 3
Structure (SMILES): Cn1cc(Cl)c2c(Oc3c(F)cc(Nc4cc(Cl)nc(N)n4)cc3F)ccnc21
Effect on: cell-free assay
Technique: competition with immobilised ligand
Concentration: 0.1 µM
Quantity: remaining binding
Serine/threonine-protein kinase B-raf (BRAF, Homo sapiens, UniProt P15056): 100%
Serine/threonine-protein kinase NIM1 (NIM1K, Homo sapiens, UniProt Q8IY84): 93%
Mast/stem cell growth factor receptor Kit (KIT, Homo sapiens, UniProt P10721, T670I/V559D): 91%
ALK tyrosine kinase receptor (ALK, Homo sapiens, UniProt Q9UM73): 89%
Mitogen-activated protein kinase 14 (MAPK14, Homo sapiens, UniProt Q16539): 100%
Dual specificity mitogen-activated protein kinase kinase 5 (MAP2K5, Homo sapiens, UniProt Q13163): 100%
Phosphatidylinositol 4-phosphate 5-kinase type-1 gamma (PIP5K1C, Homo sapiens, UniProt O60331): 93%
Phosphatidylinositol 4,5-bisphosphate 3-kinase catalytic subunit alpha isoform (PIK3CA, Homo sapiens, UniProt P42336, I800L): 82%
Receptor-type tyrosine-protein kinase FLT3 (FLT3, Homo sapiens, UniProt P36888, N841I): 96%
Serine/threonine-protein kinase Chk1 (CHEK1, Homo sapiens, UniProt O14757): 100%
Phosphatidylinositol 4-phosphate 5-kinase type-1 alpha (PIP5K1A, Homo sapiens, UniProt Q99755): 70%
Phosphatidylinositol 3-kinase catalytic subunit type 3 (PIK3C3, Homo sapiens, UniProt Q8NEB9): 75%
Receptor-type tyrosine-protein kinase FLT3 (FLT3, Homo sapiens, UniProt P36888, ITD): 100%
Cyclin-dependent kinase 17 (CDK17, Homo sapiens, UniProt Q00537): 100%
Epidermal growth factor receptor (EGFR, Homo sapiens, UniProt P00533, del747-752/P753S): 77%
Serine/threonine-protein kinase TNNI3K (TNNI3K, Homo sapiens, UniProt Q59H18): 78%
Homeodomain-interacting protein kinase 2 (HIPK2, Homo sapiens, UniProt Q9H2X6): 100%
Phosphatidylinositol 5-phosphate 4-kinase type-2 beta (PIP4K2B, Homo sapiens, UniProt P78356): 76%
Tyrosine-protein kinase receptor Tie-1 (TIE1, Homo sapiens, UniProt P35590): 100%
Tyrosine-protein kinase ABL1, phosphorylated (ABL1, Homo sapiens, UniProt P00519, M351T): 90%
Mast/stem cell growth factor receptor Kit (KIT, Homo sapiens, UniProt P10721, V559D/V654A): 90%
Serine/threonine-protein kinase pim-2 (PIM2, Homo sapiens, UniProt Q9P1W9): 88%

Set 4
Target: UBC/CDC34 (Homo sapiens, UniProt P0CG48+P49427)
UniProt P49427, sequence (whole entry, looked up): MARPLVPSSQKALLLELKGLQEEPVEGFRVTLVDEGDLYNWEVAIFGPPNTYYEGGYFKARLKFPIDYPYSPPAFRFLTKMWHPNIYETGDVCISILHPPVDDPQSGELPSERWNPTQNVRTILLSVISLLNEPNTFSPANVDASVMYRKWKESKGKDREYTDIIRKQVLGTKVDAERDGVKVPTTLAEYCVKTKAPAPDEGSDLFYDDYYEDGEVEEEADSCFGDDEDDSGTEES
Technique: TR-FRET
Quantity: EC50
CCOC(=O)C1(Cc2ccc(-c3cc(Cl)cc(Cl)c3)cc2)CCN(C(=O)OC)CC1: > 100 µM
COCC(=O)N1CCC(O)(c2ccc(-c3cc(Cl)cc(Cl)c3)cc2)CC1: > 100 µM
CCOC(=O)C1(Cc2ccc(-c3cc(Cl)cc(Cl)c3)cc2)CCN(C(=O)CNC)CC1: 6.3 µM
CCOC(=O)C1(Cc2ccc(-c3cc(Cl)cc(Cl)c3)cc2)CCN(C(=O)CN(C)C)CC1: 9.6 µM
Cc1nnc(C2(Cc3ccc(-c4cc(Cl)cc(Cl)c4)cc3)CCN(C(=O)COc3ccccc3)CC2)o1: > 100 µM
COCC(=O)N1CCC(Cc2ccc(-c3cc(Cl)cc(Cl)c3)cc2)(C(=O)N[C@@H]2CCOC2)CC1: > 100 µM
COCC(=O)N1CCC(Cc2ccc(-c3cc(Cl)cc(Cl)c3)cc2)(C(N)=O)CC1: > 100 µM
CCCCCN1CCC(Cc2ccc(-c3cc(Cl)cc(Cl)c3)cc2)(C(=O)OCC)CC1: > 100 µM

Excerpt of the above (set 3):
Serine/threonine-protein kinase B-raf (BRAF, Homo sapiens, UniProt P15056): 100%
Serine/threonine-protein kinase NIM1 (NIM1K, Homo sapiens, UniProt Q8IY84): 93%
Mast/stem cell growth factor receptor Kit (KIT, Homo sapiens, UniProt P10721, T670I/V559D): 91%
ALK tyrosine kinase receptor (ALK, Homo sapiens, UniProt Q9UM73): 89%
Mitogen-activated protein kinase 14 (MAPK14, Homo sapiens, UniProt Q16539): 100%
Dual specificity mitogen-activated protein kinase kinase 5 (MAP2K5, Homo sapiens, UniProt Q13163): 100%
Phosphatidylinositol 4-phosphate 5-kinase type-1 gamma (PIP5K1C, Homo sapiens, UniProt O60331): 93%
Phosphatidylinositol 4,5-bisphosphate 3-kinase catalytic subunit alpha isoform (PIK3CA, Homo sapiens, UniProt P42336, I800L): 82%
Receptor-type tyrosine-protein kinase FLT3 (FLT3, Homo sapiens, UniProt P36888, N841I): 96%
